{"data": "Published values pooled from the literature", "note": "Compare with care: the assays were run in different laboratories. “And” joins repeats or separate records; there may be more than shown. Numbers after ± are the reported error."}
{"Compound": "COc1cnc2cccc(N3CCc4c(cc(Cn5ccnc5)cc4-c4cn(C)nc4C(F)(F)F)C3=O)c2c1", "system": "BALB/c nude mice, MV4-11 xenograft", "conditions": "intraperitoneal, 75 mg/kg, day 10", "endpoint": "tumour volume", "result": "151 mm3 and 172 mm3 and 161 mm3 and 164 mm3 and 144 mm3 and 105 mm3"}
{"Compound": "COc1ccc(C2CC(Nc3ccc(-c4ccc(NC5=NOC(c6ccc(OC)cc6)C5)cc4)cc3)=NO2)cc1 (stereo not shown)", "test": "carrageenan paw oedema", "system": "albino rat", "conditions": "oral, 100 mg/kg, 3 h", "endpoint": "inhibition", "result": "67.3%"}
{"Compound": "CC(=O)[O-].O.O.O.O.[Co+2].[O-]c1ccc(Br)cc1C=NCCN1CCOCC1", "test": "DPPH radical scavenging", "conditions": "80 µM", "endpoint": "inhibition", "result": "31.9%"}
{"Compound": "COCC1CN(C2CCN(c3cc(OC)c(Nc4ncc(Br)c(Nc5ccc6c(c5P(C)(C)=O)OCCO6)n4)cc3C)CC2)C1", "test": "RECIST 1.1", "system": "advanced EGFR-mutant NSCLC patients", "conditions": "90 mg once daily", "endpoint": "progressive disease", "result": "100%"}
{"Compound": "CC(C)C[C@H](NC(=O)CNC(=O)[C@H](CCC(N)=O)NC(=O)[C@H](CC(C)C)NC(=O)[C@H](CC(C)C)NC(=O)[C@H](CCCNC(=N)N)NC(=O)[C@H](CCC(N)=O)NC(=O)[C@H](CC(C)C)NC(=O)[C@H](CCCNC(=N)N)NC(=O)[C@H](C)NC(=O)CNC(=O)[C@H](CCC(=O)O)NC(=O)[C@H](CCCNC(=N)N)NC(=O)[C@H](CC(C)C)NC(=O)[C@H](CCCNC(=N)N)NC(=O)[C@H](CO)NC(=O)[C@H](CC(C)C)NC(=O)[C@H](CCC(=O)O)NC(=O)[C@H](CO)NC(=O)[C@@H](NC(=O)[C@H](Cc1ccccc1)NC(=O)[C@@H](NC(=O)CNC(=O)[C@H](CC(=O)O)NC(=O)C(C)(C)NC(=O)[C@@H](N)Cc1c[nH]cn1)[C@@H](C)O)[C@@H](C)O)C(=O)N[C@@H](CC(C)C)C(=O)N[C@@H](CCC(N)=O)C(=O)NCC(=O)N[C@@H](CC(C)C)C(=O)N[C@H](C(=O)NCC(=O)N[C@@H](CCCCNC(=O)COCCOCCNC(=O)COCCOCCNC(=O)CC[C@H](NC(=O)CCCCCCCCCCCCCCCCC(=O)O)C(=O)O)C(N)=O)C(C)C", "system": "DIO C57BL/6J mice", "conditions": "sc, 300 nmol/kg twice daily, 8 days, not significant", "endpoint": "body weight lowering", "result": "2.5%"}
{"Compound": "CCCCCc1ccc(S(=O)(=O)N2CC2C(=O)OC)cc1 (stereo not shown)", "system": "mouse, Lewis lung carcinoma", "conditions": "intraperitoneal, 15 mg/kg, 16 doses, day 14", "endpoint": "tumour volume", "result": "564 mm3"}
{"Compound": "CC(=O)N1N=C(Nc2ccc(-c3ccc(NC4=NN(C(C)=O)C(c5ccc(O)cc5)C4)cc3)cc2)CC1c1ccc(O)cc1 (stereo not shown)", "test": "carrageenan paw oedema", "system": "albino rat", "conditions": "oral, 50 mg/kg, 3 h", "endpoint": "inhibition", "result": "27.2%"}
{"Compound": "CC[C@H](C)[C@@H](C(=O)N[C@@H](CC(C)C)C(=O)N[C@@H](CO)C(=O)N[C@@H](CO)C(=O)N[C@H](C(=O)N[C@@H](CCC(=O)O)C(=O)N[C@H](C(=O)NCC(=O)N[C@@H](CO)C(=O)N[C@@H](CC(N)=O)C(=O)N[C@H](C(=O)N1C[C@H](O)C[C@H]1C(N)=O)[C@@H](C)O)C(C)C)[C@@H](C)O)N(C)C(=O)[C@H](C)NC(=O)CN(C)C(=O)[C@H](Cc1ccccc1)NC(=O)[C@H](CO)NC(=O)[C@H](CO)NC(=O)[C@H](CCCNC(=N)N)NC(=O)[C@H](CCC(N)=O)NC(=O)[C@H](CC(C)C)NC(=O)[C@H](Cc1ccccc1)NC(=O)[C@H](Cc1c[nH]cn1)NC(=O)[C@H](C)NC(=O)[C@H](CC(C)C)NC(=O)[C@H](CCCNC(=N)N)NC(=O)[C@H](CCC(=O)O)NC(=O)[C@@H](NC(=O)[C@H](C)NC(=O)[C@@H]1CSSC[C@H](NC(=O)[C@H](CCCNC(=N)N)NC(=O)CC[C@H](NC(=O)CCCCCCCCCCCCCCCCCCC(=O)O)C(=O)O)C(=O)N[C@@H](CCC(N)=O)C(=O)N[C@@H]([C@@H](C)O)C(=O)N[C@@H](C)C(=O)N[C@@H]([C@@H](C)O)C(=O)N1)[C@@H](C)O", "system": "male Sprague-Dawley rats", "conditions": "subcutaneous, 30 nmol/kg single dose, 24 h", "how to read": "reference: vehicle", "endpoint": "food intake", "result": "69.9 ± 3.1%"}
{"Compound": "NC[C@@H](C(=O)Nc1ccc(-c2cn[nH]c2)cc1)c1ccccc1", "test": "tonometry", "system": "NZW rabbit, magnetic bead-induced ocular hypertension", "conditions": "ocular, 0.03%, 4 h", "endpoint": "IOP", "result": "32.4 mmHg"}
{"Compound": "CC(CCC(=O)NCc1ccc(C(=O)NO)cc1)C1CCC2C3C(O)CC4CC(O)CCC4(C)C3CCC12C (stereo not shown)", "test": "item: CA", "system": "PCK rat (Pkhd1 mutant), peripheral blood", "conditions": "oral gavage, dose not given, 5 months", "how to read": "reference: total bile acids", "endpoint": "relative abundance", "result": "35.2%"}
{"Compound": "CC(C)=CCc1cc(C(=O)/C=C/c2ccc(O)cc2)c(O)cc1O", "test": "phase I metabolism, substrate", "system": "minipig liver microsomes", "endpoint": "Vmax", "result": "118 ± 17.1 pmol/min/mg"}
{"Compound": "CCC(=O)N[C@@H](C)C(=O)OCC(=O)N[C@@H](C)C(=O)O", "system": "water", "conditions": "pH 2, 25 °C", "endpoint": "side-chain scission rate constant", "result": "0.0005 h⁻¹"}
{"Compound": "Cc1cccc(C)c1CNc1cc(C(=O)N2CCC2)cn2c(C)c(C)nc12", "test": "histamine-stimulated acid secretion", "system": "pylorus-ligated rat", "conditions": "oral, 2 mg/kg, added: histamine", "endpoint": "inhibition", "result": "95%"}
{"Compound": "CN1CCC[C@]1(C)/C=C/S(=O)(=O)NC(=O)Nc1c2c(cc3c1CCC3)CCC2", "test": "IL-1β release", "system": "human, whole blood ex vivo", "conditions": "oral, 100 mg twice daily, day 14, 336 h, multiple ascending dose, added: LPS and ATP", "endpoint": "inhibition", "result": "99.6%"}
{"Compound": "COc1ccc(NC(=O)c2ccc3[nH]c(-c4ccc(N(C)C)cc4)nc3c2)cn1", "system": "CT26, BALB/c nude mice, subcutaneous graft", "conditions": "dose not given, day 9", "endpoint": "tumour volume", "result": "1200 mm3 and 1770 mm3 and 767 mm3 and 493 mm3 and 808 mm3"}
{"Compound": "COc1cc2c(NC3CCN(C(C)C)CC3)cc(N3CCOCC3)nc2cc1OCCCN1CCCC1", "test": "TMT proteomics, item: SMOC1", "system": "5xFAD mice, hippocampus", "conditions": "dose not given", "how to read": "reference: untreated 5xFAD mice", "endpoint": "log2 fold change", "result": -0.124}
{"Compound": "COc1ccc(C(=O)CCc2cc(C(CCc3ccc(O)cc3OC)c3ccc(O)cc3)c(O)cc2OC)cc1 (racemic)", "system": "human blood", "conditions": "30 µM, added: A23187", "endpoint": "12-HETE level", "result": "10100 ± 4370 pg/mL"}
{"Compound": "COCCOCCOCCNC(=O)Cc1cc(CC(=O)N[C@H]2C[C@H]3C(=O)Nc4cc(OCCOCCOCCOC)cc(n4)C(=O)N4CCC[C@H]4C(=O)Nc4cc(OCCOCCOCCOC)cc(n4)C(=O)N4CCC[C@H]4C(=O)Nc4cc(OCCOCCOCCOC)cc(n4)C(=O)N3C2)cc(CC(=O)N[C@H]2C[C@H]3C(=O)Nc4cc(OCCOCCOCCOC)cc(n4)C(=O)N4CCC[C@H]4C(=O)Nc4cc(OCCOCCOCCOC)cc(n4)C(=O)N4CCC[C@H]4C(=O)Nc4cc(OCCOCCOCCOC)cc(n4)C(=O)N3C2)c1", "test": "anion binding, ITC", "system": "water", "conditions": "298 K, added: sodium iodide", "endpoint": "TΔS", "result": "4.16 ± 0.191 kcal/mol"}
{"Compound": "COC1CN([C@H]2CC[C@H]([C@@]3(C)Oc4c(Cl)cc(C(=O)NCc5c(SC)cc(C)[nH]c5=O)c(C)c4O3)CC2)C1", "test": "RNA-seq, item: HPSE", "system": "human, whole blood", "conditions": "dose not given, 24 h", "how to read": "reference: pretreatment baseline", "endpoint": "log2 fold change", "result": 1.54}
{"Compound": "COc1ccccc1-c1ccncc1C(=O)Nc1nnc(OCc2ccc(Cl)cc2)s1", "system": "Brca1 Δ11/Δ11 Polq-/- MEF, Mus musculus", "conditions": "10 µM", "how to read": "reference: 0 µM", "endpoint": "colony survival", "result": "81.3%"}
{"Compound": "COc1cc(O)ccc1CCC(c1ccc(O)cc1)c1cc2c(c(C)c1O)OC(c1ccc(O)cc1)CC2 (mixture of isomers)", "test": "item: arachidonic acid", "system": "human whole blood", "conditions": "3 µM, added: Escherichia coli", "endpoint": "amount", "result": "340000 ± 54800 pg/mL blood"}
{"Compound": "CCCCCCCCCCCCCCCC(=O)NCCCC[C@H](N)C(=O)N[C@@H](CC(=O)O)C(=O)N[C@H](C(=O)N[C@@H](Cc1c[nH]cn1)C(=O)N[C@@H](Cc1ccccc1)C(=O)N[C@@H](CCCNC(=N)N)C(=O)N[C@H](C(=O)N[C@@H](Cc1ccccc1)C(=O)N[C@@H](CCCNC(=N)N)C(=O)N[C@@H](CO)C(=O)N[C@@H](Cc1c[nH]cn1)C(=O)N[C@@H](CO)C(=O)N[C@@H](CC(=O)O)C(=O)N[C@@H](Cc1ccc(O)cc1)C(=O)N[C@@H](CCCNC(=N)N)C(=O)N[C@@H](CCCNC(=N)N)C(=O)N[C@H](C(=O)O)[C@@H](C)CC)[C@@H](C)O)[C@@H](C)O", "system": "C57BL/6J mice, MCD diet-fed", "conditions": "dose not given, 3 weeks, NASH model", "endpoint": "body weight", "result": "19.9 ± 1 g"}
{"Compound": "CC(C)(C)NCC(SS(=O)(=O)O)c1ccccc1 (stereo not shown)", "system": "Swiss Webster mice, Schistosoma mansoni-infected", "conditions": "200 mg/kg single dose on day 42 post-infection, perfusion day 56 post-infection", "how to read": "reference: vehicle", "endpoint": "spleen weight decrease", "result": "35%"}
{"Compound": "c1ccc(C2CC(Nc3ccc(-c4ccc(NC5=NOC(c6ccccc6)C5)cc4)cc3)=NO2)cc1 (stereo not shown)", "test": "carrageenan paw oedema", "system": "albino rat", "conditions": "oral, 50 mg/kg, 3 h", "how to read": "reference: vehicle", "endpoint": "inhibition", "result": "20.3%"}
{"Compound": "CC[C@H](C)[C@@H](C(=O)N[C@@H](CC(C)C)C(=O)N[C@@H](CO)C(=O)N[C@@H](CO)C(=O)N[C@H](C(=O)N[C@@H](CCC(=O)O)C(=O)N[C@H](C(=O)NCC(=O)N[C@@H](CO)C(=O)N[C@@H](CC(N)=O)C(=O)N[C@H](C(=O)N1CCC[C@H]1C(N)=O)[C@@H](C)O)C(C)C)[C@@H](C)O)N(C)C(=O)[C@H](C)NC(=O)CN(C)C(=O)[C@H](Cc1ccccc1)NC(=O)[C@H](CO)NC(=O)[C@H](CO)NC(=O)[C@H](CCCNC(=N)N)NC(=O)[C@H](Cc1c[nH]cn1)NC(=O)[C@H](CC(C)C)NC(=O)[C@H](Cc1ccccc1)NC(=O)[C@H](Cc1c[nH]cn1)NC(=O)[C@H](C)NC(=O)[C@H](CC(C)C)NC(=O)[C@H](CCCNC(=N)N)NC(=O)[C@H](CCC(=O)O)NC(=O)[C@@H](NC(=O)[C@H](C)NC(=O)[C@@H]1CSSC[C@H](NC(=O)[C@H](CCCNC(=N)N)NC(=O)CC[C@H](NC(=O)CCCCCCCCCCCCCCCCCCC(=O)O)C(=O)O)C(=O)NCC(=O)N[C@@H]([C@@H](C)O)C(=O)N[C@@H](C)C(=O)N[C@@H]([C@@H](C)O)C(=O)N1)[C@@H](C)O", "system": "male Sprague-Dawley rats", "conditions": "subcutaneous, 30 nmol/kg single dose, 24 h", "how to read": "reference: vehicle", "endpoint": "food intake", "result": "83.3 ± 1.6%"}
